# Measurements from different studies.
# Every numbered part comes from another study and shows a few of its results, in no order. Substitutions count along the parent as printed.

# Block 1 — method: protein binding microarray; molecule type: double-stranded DNA, one strand shown; medium: in vitro; tested at: not given; relative to: not given; direction: higher = stronger binding
# Target: Histone acetyltransferase KAT6A, both winged helices, GST fusion (KAT6A, Homo sapiens, UniProt Q92794, residues 1-181)
# Setting: 8-mer, flanks averaged, mean of 2 arrays, mostly near background
# Target sequence (chain): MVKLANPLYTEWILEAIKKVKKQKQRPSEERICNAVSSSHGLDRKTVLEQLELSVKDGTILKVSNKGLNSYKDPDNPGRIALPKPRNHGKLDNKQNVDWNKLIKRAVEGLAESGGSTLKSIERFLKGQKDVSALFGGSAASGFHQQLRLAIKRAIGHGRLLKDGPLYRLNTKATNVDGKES
Sequence,E-score
AAGTGGTG,-0.146
CTTAGGAA,-0.207
ATCAATCG,0.0523
TAAGCTCA,-0.113
CACTTCCG,0.0593
CTGAGTTC,-0.0477

# Block 2 — method: RNA Bind-n-Seq; molecule type: RNA; medium: in vitro; tested at: 365 nM; relative to: no-protein control; direction: higher = stronger binding
# Target: RNA binding protein fox-1 homolog 2, RRM domain, GST-SBP tag (RBFOX2, Homo sapiens, UniProt O43251-10, residues 100-194)
# Setting: natural RNA segment, single round, ends assumed
# Constant ends, left off below: GGGAGUUCUACAGUCCGACGAUC … UGGAAUUCUCGGGUGCCAA
Sequence,RBNS enrichment (R)
CUGCCUGGGACGCAUGGCUGAGUAACAGAGGGGACCACGCAGCCACCGACAGCCCUUCUCUGCGGUUGUCUGACUGGACACACUUCCUGAAAUCAGGCCGUUUCCCUCCG,0.552
UGGAUACAUGUUGAAAGAGCUCUUUGGUACACGGAAGUGACAUCUUUGGGGUCAGUGUUACGAGGUGGCCUGUGGAGGUCUUCCGGUCCUGUUGGGAUCAUUUGUGAAUA,0.661
CUCCCCCUGGAUGAGACCCUGCCUUUUUUCCCUACCCUCCUGUGAGACUGUCCUGUCCAGGAAAUCUGGGGGAAGAGGAGUUGCAAUCAGGCCCCAACCCUGUAAUAGGC,0.399
UUUUGGUGCUGUUGGCUACUUUAUCAAAAAAACAAAAAACAAAAAAACAAAAAACCCUUCAAUAGCAUCCUUGAGGAAAAGGAACAGCAGUUGACUGUAAGUGCUUCCCU,1.09
UAAAUUUUCCUAGCUGUAAGCUUAAGUCUCCUUUGUAUCCCUCUGUUGGUGGGGAAAGGUGUCUUUCUUUCUGCCCCUUCCCCUUAAAUAAUUGUGUUCAUUUUUGUUUU,1.34

# Block 3 — target: CCNA1, cyclin fold, Cln2 fusion (human); method: yeast growth competition, sequencing; medium: yeast; setting: weak parent motif; relative to: not given; direction: higher = stronger binding
# Starting sequence: PKN2 docking peptide (human); VSAVRKLDFSDTM; partner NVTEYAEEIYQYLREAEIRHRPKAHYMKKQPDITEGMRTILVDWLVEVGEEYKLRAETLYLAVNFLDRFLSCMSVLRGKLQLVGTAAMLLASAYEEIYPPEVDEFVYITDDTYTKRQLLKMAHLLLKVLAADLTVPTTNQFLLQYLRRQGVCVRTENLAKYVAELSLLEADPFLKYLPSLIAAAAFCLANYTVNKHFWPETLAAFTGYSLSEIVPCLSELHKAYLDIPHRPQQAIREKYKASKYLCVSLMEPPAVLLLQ
Change,normalised enrichment score
L7A,0.265
D11A,1.23
S10Y,0.857

# Mixed results
Molecule,target,test,system,setting,how to read,measurement,value
"PhoQ, residues 284 288 289 292 302 303 ASSHFY","PhoP, residues 12 14 15 18 19 NMSFL (Escherichia coli, UniProt P23836)","Sort-seq, item: YFP reporter",E. coli,"PhoQ-PhoP variant library, with: 10 µM Mg2+","relative to: high Mg2+ state, higher = stronger signaling",fold induction,10.3

# Excerpt of the above (block 3):
Change,normalised enrichment score
L7A,0.265
D11A,1.23
